Results of several laboratories.
“And” joins repeats or separate records; there may be more than shown. ± marks the error that the study gave.
Chain of UniProt P08684 (whole entry, looked up): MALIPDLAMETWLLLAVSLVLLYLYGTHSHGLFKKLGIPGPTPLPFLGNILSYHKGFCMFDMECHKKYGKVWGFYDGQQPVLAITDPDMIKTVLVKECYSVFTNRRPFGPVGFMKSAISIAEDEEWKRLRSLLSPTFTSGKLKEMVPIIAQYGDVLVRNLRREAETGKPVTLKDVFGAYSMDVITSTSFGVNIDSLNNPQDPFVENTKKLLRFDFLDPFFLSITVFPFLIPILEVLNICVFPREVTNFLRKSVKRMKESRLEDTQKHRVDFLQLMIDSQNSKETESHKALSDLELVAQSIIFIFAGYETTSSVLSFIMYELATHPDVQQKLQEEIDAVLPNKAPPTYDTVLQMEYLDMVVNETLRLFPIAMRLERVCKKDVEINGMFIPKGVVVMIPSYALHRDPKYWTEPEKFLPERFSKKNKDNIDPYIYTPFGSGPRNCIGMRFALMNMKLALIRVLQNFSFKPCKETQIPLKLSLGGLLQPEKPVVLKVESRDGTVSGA

CC[C@H](CO)N(CCN(N=O)[C@H](CC)CO)N=O  revertant colonies per plate (Salmonella typhimurium; plate incorporation; TA1535, water; 2500 µg/plate, without S9 test 2): 26.7 ± 5
COc1cc2nc(N3CCCN(C)CC3)nc(NC3CCN(Cc4ccccc4)CC3)c2cc1OC  viability (HBL-1; 0.5 µM, 120 h): 117%
CC(C)C[C@H](NC(=O)C[C@H](O)[C@H](CC(C)C)NC(=O)[C@H](Cc1c[nH]cn1)NC(=O)CNC(=O)[C@@H](NC(=O)[C@H](C)NC(=O)[C@H](Cc1c[nH]c2ccccc12)NC(=O)[C@H](CCC(N)=O)NC(=O)[C@@H](Cc1ccccc1)NC(=O)COCCOCCNC(=O)CCC(C(=O)O)N1CCN(CC(=O)O)CCN(CC(=O)O)CCN(CC(=O)O)CC1)C(C)C)C(N)=O (stereo partly shown) [lutetium-177 labelled]  tissue uptake (female BALB/c nu/nu mice, heart; intravenous, 100 pmol, 2 h, added: PA 300 µg): 0.08 ± 0.03 %ID/g
COc1ccc(/C=N/NC(=O)Cn2c(-c3ccc(S(C)(=O)=O)cc3)nc3cc(C)ccc32)cc1  ulcer preventive index (rat, stomach; concentration not given, 4 h; reference: normal control): 65.3%
C=CCN1CC(=O)N2[C@@H](Cc3ccc(O)cc3F)C(=O)N(Cc3cccc(N4CC(N5CCN(CC)CC5)C4)n3)C[C@@H]2N1C(=O)NCc1ccccc1  treatment-related AST increased (advanced solid tumour patients; oral, 10 mg twice daily, grade ≥3, dose-escalation): 0%
COc1ccc2[nH]c([S+]([O-])Cc3ncc(C)c(OC)c3C)nc2c1 (stereo not shown)  AUC(0-inf) (healthy Chinese volunteers, plasma; oral, 20 mg, fasted, CYP2C19 poor metabolizers): 4280 ± 1440 ng·h/mL
C[C@@H]1CCO[C@H]2Cn3cc(C(=O)NCc4ccc(F)cc4F)c(=O)c(O)c3C(=O)N12  trough concentration (C24) (human paediatric patients, weight sample B to under sample C kg, plasma; oral, 25 mg dispersible tablet, 24 h, steady state, geometric mean, population PK post-hoc, N 22): 677 ng/mL
N[C@@H]1c2ccccc2OC12CCN(c1cnc3c(N4CCCc5ncccc54)n[nH]c3n1)CC2  AUC(0-tau) (advanced metastatic solid tumour patients, plasma; oral, 100 mg once daily, cycle 1 day 15, geometric mean): 10500 ng·h/mL
Cc1cc(N)c2c(OCC(C)(C)C(=O)NC(C)C)cccc2n1  mean revertant colonies (Salmonella typhimurium; reverse mutation, plate incorporation; TA98; 5000 µg/plate, with rat liver S9): 13 colonies/plate
C[C@H]1Oc2cc(cnc2N)-c2c(nn(C)c2C#N)CN(C)C(=O)c2ccc(F)cc21  clearance (population PK; healthy participants and patients, plasma; oral, 100 mg, mean, single dose): 150 mL/min
CC(=O)Nc1cccc(-n2c(=O)n(C3CC3)c(=O)c3c(Nc4ccc(I)cc4F)n(C)c(=O)c(C)c32)c1  viability (NCI-H2087 (BRAF L597V); concentration not given, 72 h, unit not given; reference: DMSO): 0.393 and 0.711 and 0.997 and 0.39
COc1ccnc(C(=O)N[C@H]2COC(=O)[C@H](Cc3ccccc3)[C@@H](O)[C@H](C)OC2=O)c1O  DT50 (aerobic dark soil incubation; silt loam soil; 20 °C, modelling endpoint): 59.3 days
N#Cc1ccc2c(c1)[C@H]1CCCN(C(=O)c3ccc4[nH]cnc4c3)[C@H]1C2  SHBG level (human females; 80 mg, day 15): 54.2 nmol/L
CC[C@H]1[C@@H](O)[C@@H]2[C@H](CC[C@]3(C)[C@@H]([C@H](C)CCNC(=O)NS(=O)(=O)c4ccc(C(C)(C)C)cc4)CC[C@@H]23)[C@@]2(C)CC[C@@H](O)C[C@@H]12  lambda z mean (Cytochrome P450 3A4 (CYP3A4, Homo sapiens, UniProt P08684); human, plasma; 10 mg, day 1, compound alone; direction not given): 0.0605 h⁻¹
CCc1nc(C(N)=O)c(Nc2ccc(N3CCC(N4CCN(C)CC4)CC3)c(OC)c2)nc1NC1CCOCC1  renal clearance (Japanese patients, plasma and urine; oral, 200 mg, cycle 1 day 28, multiple doses, median): 19.7 mL/min
C=CC(=O)Nc1cc(Nc2nccc(-c3cn(C4CC4)c4ccccc34)n2)c(OC)cc1N(C)CCN(C)C  total protein (BALB/c nude mice, LU0387 xenograft, serum; oral, 40 mg/kg): 49.2 ± 5.08 g/L
OC[C@H]1O[C@@H](c2ccc(Cl)c(Cc3ccc(O[C@H]4CCOC4)cc3)c2)[C@H](O)[C@@H](O)[C@@H]1O  change in LDL/HDL ratio (Japanese type 1 diabetes patients, blood; 2.5 mg, day 28; reference: baseline): -0.05
C[C@@H](O)CCOC(=O)C[C@@H](C)O  heart rate (human; oral drink, dose not given, 120 min post dose, mean): 75 beats/min
O=C(O)CCC(=O)O.[2H]C([2H])([2H])Oc1cc(C)c2[nH]ccc2c1CN1CC[C@@H](C2CC2)C[C@H]1c1ccc(C(=O)O)cc1  subjects with TEAE Anemia (multiple ascending dose; healthy Chinese subjects; 100 mg twice daily): 0%
Cc1cc(NC2CCN(C(=O)OC3CCN(C(=O)/C=C/CN(C)C)C3)CC2)n2ncc(C(C)C)c2n1 (stereo not shown)  patients with adverse event (Phase I dose escalation CTCAE v4.0, item: Nausea; patients with advanced solid tumours; dose not given, all dose schedules any grade): 30%
Cc1cc(Nc2ccc(S(F)(F)(F)(F)F)cc2)n2nc(C(C)(F)F)nc2n1  patients with administration site conditions (Plasmodium falciparum; P. falciparum malaria patients; oral, 400 mg): 30.8%
NCCONC(=O)[C@@H]1CC[C@@H]2CN1C(=O)N2OS(=O)(=O)O  cumulative urinary excretion (0-24 h) (human, male, urine; intravenous infusion, 1 g multiple doses, day 9; reference: dose): 91.8%
Cn1cc(-c2ccc(-c3cncc(Cl)c3N3CCC4(CCNC4=O)CC3)cc2)cn1  log2 fold change (COLO 205; gene expression, microarray, item: IL32 mRNA; concentration not given, 2 h; reference: untreated cells): 2.13
COc1cc(NC(=O)CCN2CCC(OC(=O)Nc3ccccc3-c3ccccc3)CC2)c(Cl)cc1CNC[C@H](O)c1ccc(O)c2[nH]c(=O)ccc12  fraction unbound (equilibrium dialysis; rat, lung homogenate): 0.00048
C[C@@H]1COCCN1c1cc(C2([S@](C)(=N)=O)CC2)nc(-c2cc[nH]c3nccc2-3)n1  Nausea incidence (Japanese advanced solid tumour patients; oral, 240 mg twice daily, CTCAE grade ≥3): 0%
CN[C@@H](C)C(=O)N[C@H]1CN(S(=O)(=O)c2cccc(S(=O)(=O)N3CC[C@H]4CC[C@@H](C(=O)NC(c5ccccc5)c5ccccc5)N4C(=O)[C@@H](NC(=O)[C@H](C)NC)C3)c2)CC[C@H]2CC[C@@H](C(=O)NC(c3ccccc3)c3ccccc3)N2C1=O  Vss (LC-MS/MS, noncompartmental; human, plasma; 45 mg, cycle 1 day 1): 38.3 ± 16.1 L
C[Si](C)(C)O[Si](C)(C)O[Si](C)(C)C  total depuration rate constant (Oncorhynchus mykiss; model from S9 data; per S9 batch): 0.08 day⁻¹ and 0.09 day⁻¹ and 0.067 day⁻¹
CN1C(=O)[C@@H](NC(=O)c2nnc(Cc3ccccc3)[nH]2)COc2cccnc21  t½ (human, both sexes): 6 to 9 h
